Measured values gathered from unrelated publications.
Each line is one published result; not all experiments were run side by side.
Organism: Escherichia coli

CC1(C)[C@H](NC(=O)/C(=N\OC2(C(=O)O)CCCC2)c2csc(N)n2)C(=O)N1OS(=O)(=O)O — MIC (agar dilution; CDC 1001728, NDM-1): 0.5 mg/L
OB(O)c1ccc(OCc2ccccc2)nc1F — MIC (bacterial growth; AmpC-overproducing clinical isolate; without cefotaxime): > 2050 mg/L
CC[C@H](C)[C@H](NC(=O)[C@@H](CCCNC(=N)N)NC(=O)[C@H](CCCNC(=N)N)NC(=O)[C@H](Cc1c[nH]cn1)NC(=O)[C@H](Cc1c[nH]c2ccccc12)NC(=O)[C@H](CCCNC(=N)N)NC(=O)[C@@H]1CCCN1C(=O)[C@H](CCCNC(=N)N)NC(=O)[C@@H]1CCCN1C(=O)[C@H](CC(C)C)NC(=O)[C@H](Cc1ccc(O)cc1)NC(=O)[C@@H]1CCCN1C(=O)[C@@H]1CCCN1C(=O)[C@H](CCCCN)NC(=O)[C@H](CC(=O)O)NC(=O)[C@@H](N)C(C)C)C(=O)N[C@@H](Cc1ccc(O)cc1)C(=O)N[C@@H](CC(N)=O)C(=O)N[C@H](CCCNC(=N)N)C(N)=O — MIC (broth microdilution; BW25113; 18 h, 37 °C, 25% MHB2): 16 mg/L
C#CCNC(=O)[C@H](CCCNC(=N)N)NC(=O)[C@@H]1CCCN1C(=O)[C@@H]1CCCN1C(=O)[C@H](CCCNC(=N)N)NC(=O)[C@@H]1CCCN1C(=O)[C@H](CCCNC(=N)N)NC(=O)[C@@H]1CCCN1C(=O)[C@H](CC(C)C)NC(=O)[C@H](Cc1ccc(O)cc1)NC(=O)[C@@H]1CCCN1C(=O)[C@@H]1CCCN1C(=O)[C@H](CCCCN)NC(=O)[C@H](CC(=O)O)NC(=O)[C@@H](N)C(C)C — MIC (broth microdilution; MRE600; 16 h, 37 °C, 25% Mueller-Hinton broth): 32 mg/L
CCCCCCCC(=O)N[C@@H](CCN)C(=O)N[C@H](C(=O)N[C@@H](CCN)C(=O)N[C@H]1CCNC(=O)[C@H]([C@@H](C)O)NC(=O)[C@H](CCN)NC(=O)[C@H](CCN)NC(=O)[C@H](CCCCCC)NC(=O)[C@@H](Cc2ccccc2)NC(=O)[C@H](CCN)NC1=O)[C@@H](C)O — MIC (broth microdilution; mcr-1, colistin-resistant): 0.5 to 1 mg/L
CC[C@H](C)[C@H](NC(=O)[C@H](CCCCN)NC(=O)[C@H](CCCNC(=N)N)NC(=O)[C@H](CCCCN)NC(=O)[C@H](CC(C)C)NC(=O)[C@H](Cc1ccccc1)NC(=O)[C@H](CCC(=O)O)NC(=O)[C@H](CCCCN)NC(=O)[C@@H](NC(=O)[C@@H](NC(=O)[C@H](CCC(=O)O)NC(=O)[C@H](C)NC(=O)CNC(=O)[C@@H](N)CCCNC(=N)N)[C@@H](C)O)C(C)C)C(=O)N[C@@H](CCCNC(=N)N)C(=O)N[C@@H](CCC(=O)O)C(=O)N[C@@H](CCCNC(=N)N)C(=O)NCC(=O)N[C@H](C(=O)N[C@@H](CCCCN)C(=O)N[C@@H](C)C(=O)N[C@H](C(=O)N[C@H](C(=O)N[C@@H](C)C(=O)N[C@@H](Cc1c[nH]c2ccccc12)C(=O)O)[C@@H](C)CC)C(C)C)[C@@H](C)O — MIC (broth microdilution; K88, Mueller-Hinton broth; 37 °C): 35.2 mg/L
CC(C)C[C@H](NC(=O)[C@@H](NC(=O)[C@H](CCCCN)NC(=O)[C@H](CCCCN)NC(=O)[C@H](CC(C)C)NC(=O)[C@H](Cc1c[nH]c2ccccc12)NC(=O)[C@H](CCCCN)NC(=O)[C@H](CC(C)C)NC(=O)[C@H](CC(C)C)NC(=O)[C@H](CCCCN)NC(=O)[C@H](CCCCN)NC(=O)[C@@H](N)C(C)C)C(C)C)C(N)=O — MIC (24 h, 37 °C, Mueller-Hinton broth, human serum 10%): 64 µM
CC[C@H](C)[C@H](NC(=O)[C@@H](CCCNC(=N)N)NC(=O)[C@H](CCCNC(=N)N)NC(=O)[C@@H]1CCCN1C(=O)[C@@H]1CCCN1C(=O)[C@H](CCCNC(=N)N)NC(=O)[C@@H]1CCCN1C(=O)[C@H](CCCNC(=N)N)NC(=O)[C@@H]1CCCN1C(=O)[C@@H](NC(=O)[C@H](Cc1ccc(O)cc1)NC(=O)[C@@H]1CCCN1C(=O)[C@@H]1CCCN1C(=O)[C@H](CCCCN)NC(=O)[C@H](CC(=O)O)NC(=O)[C@@H](N)C(C)C)C(C)(C)C)C(=O)N[C@@H](Cc1ccc(O)cc1)C(=O)N[C@@H](CC(N)=O)C(=O)N[C@H](CCCNC(=N)N)C(N)=O — MIC (broth microdilution; MC4100; 18 h, 37 °C, 25% MHB2): 16 mg/L
CC(C)C[C@@H](NC(=O)[C@@H](CCCNC(=N)N)NC(=O)[C@H](N)CCCNC(=N)N)C(=O)N[C@H](CC(C)C)C(=O)N[C@H](CCCNC(=N)N)C(=O)N[C@H](CCCCN)C(=O)N[C@H](CC(C)C)C(=O)N[C@H](CCCCN)C(=O)NCC(=O)N[C@H](CCCCN)C(=O)N[C@H](CCCCN)C(=O)N[C@H](CC(C)C)C(=O)N[C@H](Cc1ccc(O)cc1)C(=O)N[C@H](CC(C)C)C(=O)N[C@H](Cc1ccc(O)cc1)C(=O)N[C@H](Cc1ccccc1)C(=O)N[C@H](CCCCN)C(=O)N[C@H](CC(C)C)C(=O)N[C@H](CCC(N)=O)C(=O)N[C@H](CC(C)C)C(=O)N[C@H](CC(C)C)C(=O)N[C@H](CCCCN)C(=O)N[C@H](CCCCN)C(N)=O — MIC (KCTC 1682, Mueller-Hinton broth; together with: 150 mM NaCl): 16 µM
Cc1ccnc(-c2cc(C(=O)NCCCCCC(=O)N[C@@H](CCCNC(=N)N)C(=O)N[C@@H](Cc3c[nH]c4ccccc34)C(=O)N[C@@H](CCCNC(=N)N)C(=O)N[C@@H](Cc3c[nH]c4ccccc34)C(=O)N[C@@H](CCCNC(=N)N)C(=O)N[C@@H](Cc3c[nH]c4ccccc34)C(N)=O)ccn2)c1 — MIC (ATCC BAA-196, resistant; 18 h, 37 °C, LED light 1.57 mW for 10 min): 16 µM
CC(=O)N[C@@H](CC(C)C)C(=O)N[C@H]1CSSC[C@@H](C(=O)N2CCC[C@H]2C(N)=O)NC(=O)[C@H]([C@@H](C)O)NC(=O)[C@H](C(C)C)NC(=O)[C@H]([C@@H](C)O)NC(=O)CNC(=O)[C@H](CC(C)C)NC(=O)[C@H](Cc2ccccc2)NC(=O)[C@H](Cc2ccc(O)cc2)NC(=O)[C@H](CC(C)C)NC(=O)[C@H](CCCCN)NC(=O)[C@H](Cc2ccccc2)NC(=O)[C@H](CCCNC(=N)N)NC(=O)[C@H](CCCCN)NC(=O)[C@H](CC(C)C)NC(=O)[C@H](CCCCN)NC(=O)[C@@H]2CCCN2C(=O)[C@H](CCCCN)NC(=O)[C@H](C(C)C)NC(=O)[C@H](CC(N)=O)NC(=O)[C@H](Cc2ccc(O)cc2)NC(=O)[C@H]([C@@H](C)O)NC1=O — MIC (broth dilution; laboratory strain; 24 h): 1.25 to 2.5 µM
CC[C@H](C)[C@H](NC(=O)[C@@H](CCCNC(=N)N)NC(=O)[C@H](CCCNC(=N)N)NC(=O)[C@@H]1CCCN1C(=O)[C@@H]1CCCN1C(=O)[C@H](CCCNC(=N)N)NC(=O)[C@H](Cc1c[nH]c2ccccc12)NC(=O)[C@H](CCCNC(=N)N)NC(=O)[C@@H]1CCCN1C(=O)[C@H](CC(C)C)NC(=O)[C@H](Cc1ccc(O)cc1)NC(=O)[C@@H]1CCCN1C(=O)[C@@H]1CCCN1C(=O)[C@H](CCCCN)NC(=O)[C@H](CC(=O)O)NC(=O)[C@@H](N)C(C)C)C(=O)N[C@@H](Cc1ccc(O)cc1)C(=O)N[C@@H](CC(N)=O)C(=O)N[C@H](CCCNC(=N)N)C(N)=O — MIC (broth microdilution; ATCC 25922; 18 h, 37 °C, 25% MHB2): 8 mg/L
CC[C@H](C)[C@H](NC(=O)[C@@H](NC(=O)[C@H](CCCCN)NC(=O)[C@H](CCCCN)NC(=O)[C@@H](NC(=O)[C@H](Cc1c[nH]c2ccccc12)NC(=O)[C@H](CCCCN)NC(=O)[C@@H](NC(=O)[C@H](CC(C)C)NC(=O)[C@H](CCCCN)NC(=O)[C@H](CCCCN)NC(=O)[C@@H](N)C(C)C)[C@@H](C)CC)[C@@H](C)CC)C(C)C)C(N)=O — MIC (24 h, 37 °C, Mueller-Hinton broth, CaCl2 2.5 mM): 128 µM
CC[C@H](C)[C@H](NC(=O)[C@@H](CCCNC(=N)N)NC(=O)[C@H](CCCNC(=N)N)NC(=O)[C@@H]1CCCN1C(=O)[C@@H]1CCCN1C(=O)[C@H](CCCNC(=N)N)NC(=O)[C@@H]1CCCN1C(=O)[C@H](CCCNC(=N)N)NC(=O)[C@@H]1CCCN1C(=O)[C@H](CCSC)NC(=O)[C@H](Cc1ccc(O)cc1)NC(=O)[C@@H]1CCCN1C(=O)[C@@H]1CCCN1C(=O)[C@H](CCCCN)NC(=O)[C@H](CC(=O)O)NC(=O)[C@@H](N)C(C)C)C(=O)N[C@@H](Cc1ccc(O)cc1)C(=O)N[C@@H](CC(N)=O)C(=O)N[C@H](CCCNC(=N)N)C(N)=O — MIC (broth microdilution; MC4100; 18 h, 37 °C, 25% MHB2): 8 mg/L
CO[C@@H](C(N)=O)[C@H](NC(=O)c1ccc(NC(=O)[C@@H](N)Cc2ccc(O)cc2)cc1)C(=O)Nc1ccc(C(=O)Nc2ccc(C(=O)Nc3ccc(C(=O)O)c(O)c3OC(C)C)c(O)c2OC(C)C)cc1 — MIC (pentapeptide repeat protein clone; 16 h, 37 °C): > 16 mg/L
